Measurements pooled from the literature.
Each line is one published result; not all experiments were run side by side.

Nc1ncnc2c([C@@H]3N[C@H](CO)[C@@H](O)[C@H]3O)c[nH]c12 gave an antigen-positive cells of 40.6% (Zaire ebolavirus; antibody staining; human macrophages; 0.4 µM).
For `IAATRGATVVIGTSK`, the responding donors was 6% (human CD4 T cells; AIM; peptide).
CC[C@H](C)[C@H](NC(=O)[C@H](CC(C)C)NC(=O)[C@H](Cc1c[nH]c2ccccc12)NC(=O)[C@H](CCC(N)=O)NC(=O)[C@@H](NC(=O)[C@H](Cc1ccccc1)NC(=O)[C@H](C)NC(=O)[C@H](CCCCNC(=O)COCCOCCNC(=O)COCCOCCNC(=O)CC[C@H](NC(=O)CCCCCCCCCCCCCCCCCCC(=O)O)C(=O)O)NC(=O)[C@H](CCC(N)=O)NC(=O)[C@H](C)NC(=O)[C@@H](NC(=O)[C@H](CCCCN)NC(=O)[C@H](CC(=O)O)NC(=O)[C@H](CC(C)C)NC(=O)C(C)(C)NC(=O)[C@@H](NC(=O)[C@H](CO)NC(=O)[C@H](Cc1ccc(O)cc1)NC(=O)[C@H](CC(=O)O)NC(=O)[C@H](CO)NC(=O)[C@@H](NC(=O)[C@H](Cc1ccccc1)NC(=O)[C@@H](NC(=O)CNC(=O)[C@H](CCC(=O)O)NC(=O)C(C)(C)NC(=O)[C@@H](N)Cc1ccc(O)cc1)[C@@H](C)O)[C@@H](C)O)[C@@H](C)CC)[C@@H](C)CC)C(C)C)C(=O)N[C@@H](C)C(=O)NCC(=O)NCC(=O)N1CCC[C@H]1C(=O)N[C@@H](CO)C(=O)N[C@@H](CO)C(=O)NCC(=O)N[C@@H](C)C(=O)N1CCC[C@H]1C(=O)N1CCC[C@H]1C(=O)N1CCC[C@H]1C(=O)N[C@@H](CO)C(N)=O — result for “pulse rate change”: 5.09 bpm (healthy subjects; 0.5 mg, day 29, multiple ascending dose, LS mean; reference: baseline).
`VRIIMRLWLCWKCRS` has a responding donors of 14% (human CD4 T cells; AIM; peptide).
COc1cc(N2CCN(C)CC2)ccc1Nc1ncc2c(n1)N(C)c1ccccc1C(=O)N2 has an inhibition of 0.387% (Replicase polyprotein 1ab, main protease (rep, Severe acute respiratory syndrome coronavirus 2, UniProt P0DTD1); viral replication, Gluc reporter; SARS-CoV-2; 20 µM).

Excerpt of the above:
`VRIIMRLWLCWKCRS` has a responding donors of 14% (human CD4 T cells; AIM; peptide).
